Measurements gathered from unrelated publications.
A part holds a random share of what one study measured.
Sequence of UniProt P45984 (whole entry, looked up): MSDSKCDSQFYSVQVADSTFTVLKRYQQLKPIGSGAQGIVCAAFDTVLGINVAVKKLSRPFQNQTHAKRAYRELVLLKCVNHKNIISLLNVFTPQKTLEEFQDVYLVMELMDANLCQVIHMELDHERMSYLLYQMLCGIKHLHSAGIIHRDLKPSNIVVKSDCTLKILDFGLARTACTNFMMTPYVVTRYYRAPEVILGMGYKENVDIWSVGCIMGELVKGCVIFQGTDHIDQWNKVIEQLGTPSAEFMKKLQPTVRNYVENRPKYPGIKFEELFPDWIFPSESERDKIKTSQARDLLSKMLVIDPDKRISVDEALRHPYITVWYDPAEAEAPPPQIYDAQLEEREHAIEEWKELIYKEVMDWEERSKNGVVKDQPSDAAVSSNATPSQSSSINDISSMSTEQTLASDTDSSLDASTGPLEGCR
Sequence of UniProt P35626 (whole entry, looked up): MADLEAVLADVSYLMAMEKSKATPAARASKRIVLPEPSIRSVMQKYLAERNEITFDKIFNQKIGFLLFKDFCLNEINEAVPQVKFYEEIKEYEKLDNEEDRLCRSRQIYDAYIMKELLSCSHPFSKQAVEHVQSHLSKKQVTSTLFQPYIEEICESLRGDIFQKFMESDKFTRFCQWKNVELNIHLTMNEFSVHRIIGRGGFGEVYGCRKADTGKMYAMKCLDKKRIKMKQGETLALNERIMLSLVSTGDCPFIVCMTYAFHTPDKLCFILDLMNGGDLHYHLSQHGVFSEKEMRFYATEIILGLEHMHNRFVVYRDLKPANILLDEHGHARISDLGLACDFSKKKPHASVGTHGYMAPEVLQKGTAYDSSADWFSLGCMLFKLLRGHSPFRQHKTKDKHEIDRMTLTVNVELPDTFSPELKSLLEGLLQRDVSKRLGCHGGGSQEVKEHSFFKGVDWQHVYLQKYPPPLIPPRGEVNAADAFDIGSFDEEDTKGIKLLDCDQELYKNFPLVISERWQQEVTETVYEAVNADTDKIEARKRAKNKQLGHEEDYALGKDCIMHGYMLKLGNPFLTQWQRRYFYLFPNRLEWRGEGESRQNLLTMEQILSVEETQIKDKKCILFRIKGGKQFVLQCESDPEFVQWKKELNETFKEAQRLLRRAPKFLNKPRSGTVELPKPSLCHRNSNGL
Sequence of UniProt O94804 (whole entry, looked up): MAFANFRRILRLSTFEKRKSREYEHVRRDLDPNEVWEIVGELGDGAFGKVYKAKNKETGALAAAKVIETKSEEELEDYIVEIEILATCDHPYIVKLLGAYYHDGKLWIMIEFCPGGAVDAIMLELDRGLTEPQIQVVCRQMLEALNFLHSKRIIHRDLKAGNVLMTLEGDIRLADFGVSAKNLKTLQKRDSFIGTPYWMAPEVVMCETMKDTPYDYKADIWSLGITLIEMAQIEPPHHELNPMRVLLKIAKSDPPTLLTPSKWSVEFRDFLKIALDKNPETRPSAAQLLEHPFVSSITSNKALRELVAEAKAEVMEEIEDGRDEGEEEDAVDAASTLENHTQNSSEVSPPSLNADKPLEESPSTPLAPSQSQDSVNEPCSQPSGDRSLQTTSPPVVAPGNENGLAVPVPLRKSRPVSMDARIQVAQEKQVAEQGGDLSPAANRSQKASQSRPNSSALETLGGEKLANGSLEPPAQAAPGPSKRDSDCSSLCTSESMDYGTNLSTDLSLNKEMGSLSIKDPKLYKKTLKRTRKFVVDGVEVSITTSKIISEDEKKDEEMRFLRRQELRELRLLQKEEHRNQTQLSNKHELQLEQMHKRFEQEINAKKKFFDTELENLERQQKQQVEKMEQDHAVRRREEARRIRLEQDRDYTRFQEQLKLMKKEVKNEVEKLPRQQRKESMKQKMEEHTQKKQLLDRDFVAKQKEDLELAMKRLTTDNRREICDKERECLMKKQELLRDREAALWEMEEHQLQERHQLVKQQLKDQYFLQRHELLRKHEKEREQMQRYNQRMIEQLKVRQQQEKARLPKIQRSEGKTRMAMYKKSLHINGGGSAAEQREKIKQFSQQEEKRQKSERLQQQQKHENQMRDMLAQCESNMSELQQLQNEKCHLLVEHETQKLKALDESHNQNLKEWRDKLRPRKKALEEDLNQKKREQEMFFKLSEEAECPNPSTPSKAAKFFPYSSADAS
Sequence of UniProt P11802 (whole entry, looked up): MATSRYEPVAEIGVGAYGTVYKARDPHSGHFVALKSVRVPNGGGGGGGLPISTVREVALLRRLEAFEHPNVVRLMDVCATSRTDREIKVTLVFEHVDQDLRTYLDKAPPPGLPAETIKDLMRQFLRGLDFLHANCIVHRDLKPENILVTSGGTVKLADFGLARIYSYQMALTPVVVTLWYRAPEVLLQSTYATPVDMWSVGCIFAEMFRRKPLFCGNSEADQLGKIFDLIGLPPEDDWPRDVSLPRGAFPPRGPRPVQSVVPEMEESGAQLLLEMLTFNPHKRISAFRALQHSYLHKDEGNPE
Sequence of UniProt P51955 (whole entry, looked up): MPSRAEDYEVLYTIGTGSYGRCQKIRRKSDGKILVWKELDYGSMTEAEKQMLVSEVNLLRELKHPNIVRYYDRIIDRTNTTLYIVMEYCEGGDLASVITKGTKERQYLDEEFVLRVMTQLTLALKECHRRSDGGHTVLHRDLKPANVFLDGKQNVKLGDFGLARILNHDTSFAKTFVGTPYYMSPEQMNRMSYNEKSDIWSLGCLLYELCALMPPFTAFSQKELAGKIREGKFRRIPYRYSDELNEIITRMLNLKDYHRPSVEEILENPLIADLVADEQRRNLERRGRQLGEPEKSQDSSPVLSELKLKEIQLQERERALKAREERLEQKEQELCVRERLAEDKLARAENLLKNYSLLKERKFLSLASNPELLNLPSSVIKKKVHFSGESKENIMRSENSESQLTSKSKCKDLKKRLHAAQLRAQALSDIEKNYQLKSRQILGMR
Sequence of UniProt P07949 (whole entry, unmodified, looked up): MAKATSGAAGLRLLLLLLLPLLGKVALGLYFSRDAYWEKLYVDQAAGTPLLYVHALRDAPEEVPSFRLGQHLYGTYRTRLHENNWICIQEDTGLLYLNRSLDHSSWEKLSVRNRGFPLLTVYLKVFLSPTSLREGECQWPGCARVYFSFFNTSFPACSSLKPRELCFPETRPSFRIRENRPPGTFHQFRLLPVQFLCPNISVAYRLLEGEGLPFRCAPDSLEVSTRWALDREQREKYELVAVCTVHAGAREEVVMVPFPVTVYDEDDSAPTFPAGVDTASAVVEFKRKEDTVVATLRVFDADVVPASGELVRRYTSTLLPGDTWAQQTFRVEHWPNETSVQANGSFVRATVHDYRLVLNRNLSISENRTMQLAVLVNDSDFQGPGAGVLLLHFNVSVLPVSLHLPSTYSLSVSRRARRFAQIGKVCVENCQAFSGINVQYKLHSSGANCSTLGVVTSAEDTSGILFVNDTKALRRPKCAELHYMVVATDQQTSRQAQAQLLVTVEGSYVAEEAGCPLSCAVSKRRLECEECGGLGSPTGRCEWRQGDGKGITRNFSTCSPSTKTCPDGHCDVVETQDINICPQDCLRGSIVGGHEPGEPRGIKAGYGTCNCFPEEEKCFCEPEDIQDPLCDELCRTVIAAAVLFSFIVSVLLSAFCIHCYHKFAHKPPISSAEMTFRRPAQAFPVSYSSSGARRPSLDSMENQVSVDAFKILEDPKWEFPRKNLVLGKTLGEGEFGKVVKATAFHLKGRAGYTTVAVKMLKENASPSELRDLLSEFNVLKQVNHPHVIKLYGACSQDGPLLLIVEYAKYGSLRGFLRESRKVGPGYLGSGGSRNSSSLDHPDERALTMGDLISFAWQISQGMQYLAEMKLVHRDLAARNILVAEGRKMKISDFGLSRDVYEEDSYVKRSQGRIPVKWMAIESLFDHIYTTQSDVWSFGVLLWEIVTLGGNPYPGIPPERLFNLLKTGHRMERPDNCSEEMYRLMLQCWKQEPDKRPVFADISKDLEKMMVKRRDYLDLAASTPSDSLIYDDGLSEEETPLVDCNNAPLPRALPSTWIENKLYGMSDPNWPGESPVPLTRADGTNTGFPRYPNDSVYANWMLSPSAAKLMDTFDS
Sequence of UniProt Q00535 (whole entry, looked up): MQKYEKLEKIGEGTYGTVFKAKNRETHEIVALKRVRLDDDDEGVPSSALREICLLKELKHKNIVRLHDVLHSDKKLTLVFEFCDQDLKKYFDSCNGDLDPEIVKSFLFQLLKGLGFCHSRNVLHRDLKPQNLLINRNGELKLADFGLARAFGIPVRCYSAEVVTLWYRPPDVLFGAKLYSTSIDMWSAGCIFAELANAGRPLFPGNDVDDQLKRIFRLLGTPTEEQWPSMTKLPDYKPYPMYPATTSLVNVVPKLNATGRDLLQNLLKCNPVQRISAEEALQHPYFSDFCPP
Sequence of UniProt P04629 (whole entry, looked up): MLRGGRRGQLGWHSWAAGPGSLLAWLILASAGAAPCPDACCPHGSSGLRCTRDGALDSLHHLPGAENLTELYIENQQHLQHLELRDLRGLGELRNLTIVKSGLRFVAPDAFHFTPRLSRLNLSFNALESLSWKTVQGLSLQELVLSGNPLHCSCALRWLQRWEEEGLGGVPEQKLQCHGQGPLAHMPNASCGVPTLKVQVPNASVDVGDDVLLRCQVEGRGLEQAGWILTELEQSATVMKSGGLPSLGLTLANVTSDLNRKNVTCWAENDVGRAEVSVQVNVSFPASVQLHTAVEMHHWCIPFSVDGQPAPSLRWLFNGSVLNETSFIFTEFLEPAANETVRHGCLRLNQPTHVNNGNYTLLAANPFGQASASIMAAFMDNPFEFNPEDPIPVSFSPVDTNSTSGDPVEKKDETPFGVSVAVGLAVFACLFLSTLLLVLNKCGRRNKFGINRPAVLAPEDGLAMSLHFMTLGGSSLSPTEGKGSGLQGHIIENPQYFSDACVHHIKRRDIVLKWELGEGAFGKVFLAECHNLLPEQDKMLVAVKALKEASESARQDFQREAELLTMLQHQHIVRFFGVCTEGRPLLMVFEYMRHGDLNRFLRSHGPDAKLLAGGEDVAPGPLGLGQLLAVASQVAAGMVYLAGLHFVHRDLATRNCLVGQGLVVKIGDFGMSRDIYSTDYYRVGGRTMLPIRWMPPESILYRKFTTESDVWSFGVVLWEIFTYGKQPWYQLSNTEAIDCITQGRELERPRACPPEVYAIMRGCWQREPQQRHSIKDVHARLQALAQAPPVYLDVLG

Set 1
Organism: Sarcocystis neurona
Effect on: parasite activity
Concentration: concentration not given
Compound	activity class
CC(O)CO.N[C@@H](C(=O)N[C@@H]1C(=O)N2C(C(=O)O)=C(CSc3cn[nH]n3)CS[C@H]12)c1ccc(O)cc1	inactive
CC1=C(C(=O)O)N2C(=O)[C@@H](NC(=O)[C@H](N)c3ccccc3)[C@H]2SC1.O	inactive
CN(Cc1cnc2nc(N)nc(N)c2n1)c1ccc(C(=O)N[C@@H](CCC(=O)O)C(=O)O)cc1.O	inactive
Cl.O.O=C1N(c2ccccc2)c2ccccc2C1(Cc1ccncc1)Cc1ccncc1	inactive
C[C@]12CCC(=O)C=C1CC[C@@H]1[C@@H]2CC[C@@]2(C)[C@H]1CC[C@]2(O)C(=O)CO	inactive
Cl.Nc1nc2ccc(OC(F)(F)F)cc2s1	inactive
COC(=O)C1=C(C)NC(C)=C(C(=O)O[C@@H]2CCCN(Cc3ccccc3)C2)[C@@H]1c1cccc([N+](=O)[O-])c1.Cl (racemic)	inactive
CN1[C@@H](CC(=O)c2ccccc2)CCC[C@H]1C[C@H](O)c1ccccc1.Cl	inactive
C[C@]12CCC(=O)C=C1CC[C@@H]1[C@@H]2C(=O)C[C@@]2(C)[C@H]1CC[C@]2(O)C(=O)CO	inactive
Nc1c2c(nc3c1CCC3)CCCC2	inactive
CCCCC(=O)O[C@H]1CC[C@H]2[C@@H]3CCc4cc(O)ccc4[C@H]3CC[C@]12C	inactive

Set 2
Target: Diamine acetyltransferase 1 (Homo sapiens, UniProt P21673)
Action: inhibitor
Concentration: 10 µM
Reference: control
Residues (P21673 1-171): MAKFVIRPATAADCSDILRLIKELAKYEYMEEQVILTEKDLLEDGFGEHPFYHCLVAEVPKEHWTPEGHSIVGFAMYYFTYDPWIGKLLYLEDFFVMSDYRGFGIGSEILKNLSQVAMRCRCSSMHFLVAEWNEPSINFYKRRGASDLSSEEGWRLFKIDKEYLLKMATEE
SMILES	remaining activity [%]
C[C@@H]1CC[C@]2(C(=O)O)CC[C@]3(C)C(=CC[C@@H]4[C@@]5(C)CC[C@H](O)C(C)(C)[C@@H]5CC[C@]43C)[C@@H]2[C@]1(C)O	99.4
COc1cc(O)c2c(=O)cc(-c3ccc(O)cc3)oc2c1	96.7
O=C1C[C@@H](c2ccc(O[C@@H]3O[C@H](CO)[C@@H](O)[C@H](O)[C@H]3O)cc2)Oc2cc(O)ccc21	118
C[C@@H]1O[C@@H](O[C@@H]2C(=O)c3c(O)cc(O)cc3O[C@H]2c2cc(O)cc(O)c2)[C@H](O)[C@H](O)[C@H]1O	104
NC(=O)c1ccccc1	92.2
CCCCCCCCCCCCCCC(=O)OC	114
COc1cc(O)c(C(C)=O)c(OC)c1	80.2
O=C[C@H](O)[C@@H](O)[C@H](O[C@H]1O[C@H](CO)[C@@H](O[C@H]2O[C@H](CO)[C@@H](O[C@H]3O[C@H](CO)[C@@H](O[C@H]4O[C@H](CO)[C@@H](O[C@H]5O[C@H](CO)[C@@H](O[C@H]6O[C@H](CO)[C@@H](O)[C@H](O)[C@H]6O)[C@H](O)[C@H]5O)[C@H](O)[C@H]4O)[C@H](O)[C@H]3O)[C@H](O)[C@H]2O)[C@H](O)[C@H]1O)[C@H](O)CO	97.3
OC[C@@H](O)[C@H](O)[C@H](O)[C@@H](O)CO	83.9
C=C(C)[C@@H]1CC=C2C(=CC[C@]3(C)[C@@H]([C@@H](CCC=C(C)C)C(=O)O)[C@H](O)C[C@@]23C)[C@@]1(C)CCC(=O)O	97.6
O=c1cc(-c2ccc(O)cc2)oc2c([C@@H]3O[C@H](CO)[C@@H](O)[C@H](O)[C@H]3O)c(O)cc(O)c12	100

Set 3
Structure (SMILES): CC(C)(C)n1nc(Cc2cccc3ccccc23)c2c(N)ncnc21
Effect on: enzyme activity
Action: inhibitor
Concentration: 0.5 µM
Reference: control
target	remaining activity [%]
CAMKK2 (Homo sapiens, UniProt Q96RR4)	82.4
MAP3K3 (Homo sapiens, UniProt Q99759)	98.8
TGFBR1 (Homo sapiens, UniProt P36897)	102
DAPK2 (Homo sapiens, UniProt Q9UIK4)	101
TGFBR2 (Homo sapiens, UniProt P37173)	108
Protein kinase C beta type, isoform beta-I (PRKCB, Homo sapiens, UniProt P05771)	89.8
DAPK1 (Homo sapiens, UniProt P53355)	87.3
NEK2 (Homo sapiens, UniProt P51955)	98.4
MAPK9 (Homo sapiens, UniProt P45984)	80.3
Cyclin-dependent kinase 5, with p25 (CDK5, Homo sapiens, UniProt Q00535)	109
STK39 (Homo sapiens, UniProt Q9UEW8)	100
STK10 (Homo sapiens, UniProt O94804)	81.1
PRKACA (Homo sapiens, UniProt P17612)	54.3
Cyclin-dependent kinase 4, with cyclin D1 (CDK4, Homo sapiens, UniProt P11802)	96.7
IKBKE (Homo sapiens, UniProt Q14164)	98.3
IKBKB (Homo sapiens, UniProt O14920)	97.3
Tyrosine-protein kinase Lyn, isoform B (LYN, Homo sapiens, UniProt P07948)	74.8
cGMP-dependent protein kinase 1, isoform beta (PRKG1, Homo sapiens, UniProt Q13976)	110
GRK3 (Homo sapiens, UniProt P35626)	101
PRKCA (Homo sapiens, UniProt P17252)	102
CAMK2D (Homo sapiens, UniProt Q13557)	94.1
OXSR1 (Homo sapiens, UniProt O95747)	94.7
STK11 (Homo sapiens, UniProt Q15831)	53.4
CHEK2 (Homo sapiens, UniProt O96017)	92

Set 4
SMILES: Cc1nc(C2CCN(C(=O)c3ccc(OC(F)(F)F)cc3N)CC2)c2ncc(N3CCN(C)CC3)cc2n1
Effect on: cell-free assay
Method: competition with immobilised ligand
Concentration: 1 µM
target	remaining binding [%]
HUNK (Homo sapiens, UniProt P57058)	100
MAPK15 (Homo sapiens, UniProt Q8TD08)	100
MAPK7 (Homo sapiens, UniProt Q13164)	22
ACVR1 (Homo sapiens, UniProt Q04771)	100
Myosin-IIIa (MYO3A, Homo sapiens, UniProt Q8NEV4)	100
PHKG1 (Homo sapiens, UniProt Q16816)	100
CDK16 (Homo sapiens, UniProt Q00536)	100
MAP3K13 (Homo sapiens, UniProt O43283)	100
Ribosomal protein S6 kinase alpha-1, C-terminal kinase domain (RPS6KA1, Homo sapiens, UniProt Q15418)	93
PRKCH (Homo sapiens, UniProt P24723)	88
PHKG2 (Homo sapiens, UniProt P15735)	100
COQ8B (Homo sapiens, UniProt Q96D53)	93
WNK2 (Homo sapiens, UniProt Q9Y3S1)	100
RIOK2 (Homo sapiens, UniProt Q9BVS4)	100
RET (Homo sapiens, UniProt P07949, V804L)	73
AXL (Homo sapiens, UniProt P30530)	100
MAST1 (Homo sapiens, UniProt Q9Y2H9)	100
GRK3 (Homo sapiens, UniProt P35626)	93
Tyrosine-protein kinase ABL1, non-phosphorylated (ABL1, Homo sapiens, UniProt P00519, Q252H)	81
MAPK9 (Homo sapiens, UniProt P45984)	100
IRAK4 (Homo sapiens, UniProt Q9NWZ3)	90
MST1R (Homo sapiens, UniProt Q04912)	82
NEK9 (Homo sapiens, UniProt Q8TD19)	94
PIM2 (Homo sapiens, UniProt Q9P1W9)	100
NTRK1 (Homo sapiens, UniProt P04629)	85

For quick reference, copied from above (set 1):
Compound	activity class
CC1=C(C(=O)O)N2C(=O)[C@@H](NC(=O)[C@H](N)c3ccccc3)[C@H]2SC1.O	inactive
CN(Cc1cnc2nc(N)nc(N)c2n1)c1ccc(C(=O)N[C@@H](CCC(=O)O)C(=O)O)cc1.O	inactive
Cl.O.O=C1N(c2ccccc2)c2ccccc2C1(Cc1ccncc1)Cc1ccncc1	inactive
C[C@]12CCC(=O)C=C1CC[C@@H]1[C@@H]2CC[C@@]2(C)[C@H]1CC[C@]2(O)C(=O)CO	inactive
Cl.Nc1nc2ccc(OC(F)(F)F)cc2s1	inactive
COC(=O)C1=C(C)NC(C)=C(C(=O)O[C@@H]2CCCN(Cc3ccccc3)C2)[C@@H]1c1cccc([N+](=O)[O-])c1.Cl (racemic)	inactive
CN1[C@@H](CC(=O)c2ccccc2)CCC[C@H]1C[C@H](O)c1ccccc1.Cl	inactive
